Assay results pooled from the literature.
Lines come from different studies, so protocols differ.

Cc1ccc(F)c(NC(=O)c2[nH]c3cc(C)sc3c2CN(C)C)c1  IC50 (Giardia duodenalis; parasite growth; 48 h): > 10 µM
COC1C=COC2(C)Oc3c(C)c(O)c4c(c3C2=O)C2=NC3(CCN(CC(C)C)CC3)NC2=C(NC(=O)C(C)=CC=CC(C)C(O)C(C)C(O)C(C)C(OC(=O)Nc2cnccn2)C1C)C4=O (stereo not drawn)  IC50 (Mycobacteroides abscessus; ATCC 19977; CAMHB): 0.018 µM
CCOC(=O)C(CC)NC(=O)CN1C(=O)S/C(=C\c2ccc(OC)cc2)C1=O (stereo not drawn)  IC50 (Leishmania major; parasite growth; 24 h, intracellular, amastigote): > 10 µM
Cc1ncc([N+](=O)[O-])n1CCOCc1nnc(SCC(=O)c2ccc(F)cc2)o1  IC50 (Giardia duodenalis; parasite growth): 1.31 µM
O=C1Nc2ccc(Cl)cc2C1=Cc1ccc(-c2cccc(C(=O)NCC3CCNCC3)c2)o1 (mixture of isomers)  IC50 (Trichuris muris; adult worm motility; 24 h): 41.5 µM
CCOC(=O)C(NC(=O)CN1C(=O)/C(=C/c2ccc([N+](=O)[O-])cc2)SC1=S)C(C)C (stereo not drawn)  IC50 (Leishmania major; parasite growth; 24 h, intracellular, amastigote): > 10 µM
Cc1cc2[nH]c(C(=O)Nc3ccccc3)c(CN3CCCCC3)c2s1  IC50 (Giardia duodenalis; parasite growth; 48 h): > 10 µM
Cc1cc(N2CC[C@@](C#N)(C3(C)CC3)C2=O)cc(C(=O)NCc2cc(F)cc(-c3cnn(C)c3)c2)n1  IC50 (Plasmodium falciparum; parasite growth; liver stage): 0.009 µM
Cc1ncc([N+](=O)[O-])n1CCOCc1nnc(SCC(=O)c2ccc(Br)cc2)o1  IC50 (Giardia duodenalis; parasite growth): 1.81 µM
COCCNC(=O)c1[nH]c2cc(C)sc2c1CN(C)C  IC50 (Giardia duodenalis; parasite growth; 48 h): > 10 µM
CCOC(=O)C(CC)NC(=O)CN1C(=O)S/C(=C\c2ccc([N+](=O)[O-])cc2)C1=O (stereo not drawn)  IC50 (Leishmania major; parasite growth, resazurin; promastigote): > 100 µM
Cc1cc2[nH]c(C(=O)Nc3cc(F)ccc3Cl)c(CN(C)C)c2s1  IC50 (Giardia duodenalis; parasite growth; 48 h): 5.7 µM
Cc1ncc([N+](=O)[O-])n1CCOCc1nnc(SCC(=O)c2ccc([N+](=O)[O-])cc2)o1  IC50 (Giardia duodenalis; parasite growth): 11.2 µM
CCOC(=O)CNC(=O)CN1C(=O)S/C(=C\c2ccc(C)cc2)C1=O  IC50 (Leishmania major; parasite growth; 72 h, intracellular, amastigote): > 10 µM
Cc1cc2[nH]c(C(=O)NCc3cc(F)cc(F)c3)c(CN3CCOCC3)c2s1  IC50 (Giardia duodenalis; parasite growth; 48 h): > 10 µM
